Measured values of several laboratories.
Each line is one published result; not all experiments were run side by side. ± gives the spread as reported.

The body weight of `C=C/C=C/C[C@@H](C)[C@@H](O)[C@H]1C(=O)N[C@@H](CC)C(=O)N(C)CC(=O)N(C)[C@@H](CC(C)C)C(=O)N[C@@H](C(C)C)C(=O)N(C)[C@@H](CC(C)C)C(=O)N[C@@H](C)C(=O)N[C@H](C)C(=O)N(C)[C@@H](CC(C)C)C(=O)N(C)[C@@H](CC(C)C)C(=O)N(C)[C@@H](C(C)C)C(=O)N1C` is reported as 303 ± 13 g (male Wistar Kyoto rat; intraperitoneal, 0.5 mg/kg/day, day 18).
`CSCC[C@H](N)C(=O)N[C@@H](C)C(=O)N[C@@H](CCCNC(=N)N)C(=O)N[C@@H](CCCNC(=N)N)C(=O)N[C@@H](CC(=O)O)C(=O)N[C@@H](CCCCN)C(=O)N[C@H](C(=O)N[C@@H](CC(=O)O)C(=O)N[C@@H](Cc1ccccc1)C(=O)N[C@@H](C)C(=O)N[C@@H](CCCNC(=N)N)C(=O)N[C@@H](CCCNC(=N)N)C(=O)N[C@@H](CCCNC(=N)N)C(=O)N[C@@H](CCCNC(=N)N)C(=O)NCCCCCC(=O)NCCCCC(NC(=O)CCCCCNC(=O)[C@H](CCCNC(=N)N)NC(=O)[C@H](CCCNC(=N)N)NC(=O)[C@H](CCCNC(=N)N)NC(=O)[C@H](CCCNC(=N)N)NC(=O)[C@H](C)NC(=O)[C@H](Cc1ccccc1)NC(=O)[C@H](CC(=O)O)NC(=O)[C@@H](NC(=O)[C@H](CCCCN)NC(=O)[C@H](CC(=O)O)NC(=O)[C@H](CCCNC(=N)N)NC(=O)[C@H](CCCNC(=N)N)NC(=O)[C@H](C)NC(=O)[C@@H](N)CCSC)[C@@H](C)O)C(=O)NCCCCC(NC(=O)C(CCCCNC(=O)CCCCCNC(=O)[C@H](CCCNC(=N)N)NC(=O)[C@H](CCCNC(=N)N)NC(=O)[C@H](CCCNC(=N)N)NC(=O)[C@H](CCCNC(=N)N)NC(=O)[C@H](C)NC(=O)[C@H](Cc1ccccc1)NC(=O)[C@H](CC(=O)O)NC(=O)[C@@H](NC(=O)[C@H](CCCCN)NC(=O)[C@H](CC(=O)O)NC(=O)[C@H](CCCNC(=N)N)NC(=O)[C@H](CCCNC(=N)N)NC(=O)[C@H](C)NC(=O)[C@@H](N)CCSC)[C@@H](C)O)NC(=O)CCCCCNC(=O)[C@H](CCCNC(=N)N)NC(=O)[C@H](CCCNC(=N)N)NC(=O)[C@H](CCCNC(=N)N)NC(=O)[C@H](CCCNC(=N)N)NC(=O)[C@H](C)NC(=O)[C@H](Cc1ccccc1)NC(=O)[C@H](CC(=O)O)NC(=O)[C@@H](NC(=O)[C@H](CCCCN)NC(=O)[C@H](CC(=O)O)NC(=O)[C@H](CCCNC(=N)N)NC(=O)[C@H](CCCNC(=N)N)NC(=O)[C@H](C)NC(=O)[C@@H](N)CCSC)[C@@H](C)O)C(N)=O)[C@@H](C)O` (some centres unmarked): “mean tissue distribution” 0.94% (C57BL/6 mouse female, spleen; dose not given, 3 h; relative to: total).
Under “minimal haemolytic concentration”, `CC[C@H](C)[C@H](NC(=O)[C@H](CC(C)C)NC(=O)[C@H](CO)NC(=O)[C@H](CC(C)C)NC(=O)[C@H](CC(C)C)NC(=O)[C@@H](N)CO)C(=O)N[C@@H](CCCNC(=N)N)C(=O)N[C@@H](CCCCN)C(=O)N[C@@H](CC(C)C)C(=O)N[C@H](C(=O)N[C@H](C(=O)O)[C@@H](C)O)[C@@H](C)CC` is recorded as 100 µM (mouse red blood cells).
The Vss of `CCCCCCCCCCCCCCCC(=O)N[C@@H](CCC(=O)NCCCC[C@H](NC(=O)[C@H](CC(=O)O)NC(=O)[C@H](CO)NC(=O)[C@@H](NC(=O)[C@H](Cc1ccccc1)NC(=O)[C@@H](NC(=O)CNC(=O)[C@H](CCC(N)=O)NC(=O)[C@H](C)NC(=O)[C@@H](Cc1ccc(O)cc1)NC(C)=O)[C@@H](C)O)[C@@H](C)O)C(=O)N[C@@H](CO)C(=O)N[C@@H](CCCCN)C(=O)N[C@@H](Cc1ccc(O)cc1)C(=O)N[C@@H](CC(C)C)C(=O)N[C@@H](CC(=O)O)C(=O)N[C@@H](CCC(=O)O)C(=O)N[C@@H](CCCNC(=N)N)C(=O)N[C@@H](C)C(=O)N[C@@H](C)C(=O)N[C@@H](CCC(N)=O)C(=O)N[C@@H](CC(=O)O)C(=O)N[C@@H](Cc1ccccc1)C(=O)N[C@H](C(=O)N[C@@H](CCC(N)=O)C(=O)N[C@@H](Cc1c[nH]c2ccccc12)C(=O)N[C@@H](CC(C)C)C(=O)N[C@@H](CC(C)C)C(=O)N[C@@H](CCC(=O)O)C(=O)NCC(=O)NCC(=O)N1CCC[C@H]1C(=O)N[C@@H](CO)C(=O)N[C@@H](CO)C(=O)NCC(=O)N[C@@H](C)C(=O)N1CCC[C@H]1C(=O)N1CCC[C@H]1C(=O)N1CCC[C@H]1C(=O)N[C@@H](CO)C(N)=O)C(C)C)C(=O)O` is reported as 0.0279 to 0.0405 L/kg (cynomolgus monkey, plasma; intravenous, 0.0031 mg/kg).
With `CCn1ccc(-c2cc(-c3cnn(C)c3)cc([C@@H](C)NC(=O)c3cc(OCCN(C)C)ccc3C)c2)n1` the MRT(0-inf) was 4.1 h (C57BL/6J mice, male, plasma; oral, 50 mg/kg).
`CC(C)[C@H](NC(=O)[C@H](Cc1c[nH]c2ccccc12)NC(=O)[C@H](CCCNC(=N)N)NC(=O)[C@H](CCCNC(=N)N)NC(=O)[C@@H](NC(=O)[C@@H](NC(=O)[C@H](CCCNC(=N)N)NC(=O)[C@@H](NC(=O)[C@@H](NC(=O)[C@H](CCCNC(=N)N)NC(=O)[C@H](CCCNC(=N)N)NC(=O)[C@@H](NC(=O)[C@H](Cc1c[nH]c2ccccc12)NC(=O)[C@H](CCCNC(=N)N)NC(=O)[C@H](CCCNC(=N)N)NC(=O)[C@@H](NC(=O)[C@H](CCCNC(=N)N)NC(=O)[C@H](CCCNC(=N)N)NC(=O)[C@@H](NC(=O)[C@H](Cc1c[nH]c2ccccc12)NC(=O)[C@H](CCCNC(=N)N)NC(=O)[C@@H](N)CCCNC(=N)N)C(C)C)C(C)C)C(C)C)C(C)C)C(C)C)C(C)C)C(C)C)C(=O)N[C@@H](CCCNC(=N)N)C(=O)N[C@@H](CCCNC(=N)N)C(=O)O` gave an MTD of 30 mg/kg (Swiss Webster mice, male and female; intravenous, 14 days follow-up, single dose in saline).
The AUC(0-t) of `C/C(=N\OCCCN1CCCCC1)c1ccc(C(F)(F)F)cc1` is reported as 29100 ± 2170 ng·h/mL (mouse, plasma; oral, 150 mg/kg once daily, day 1).
`C#Cc1c(F)ccc2cc(O)cc(-c3ncc4c(N5CC6CCC(C5)N6C(=O)OC(C)OC(=O)CC(C)(C)C)nc(OC[C@@]56CCCN5C[C@H](F)C6)nc4c3F)c12` (some centres unmarked) has a t1/2 of 1.05 h (measured: prodrug; mouse whole blood; 1 µM).
For `CC(=O)NCCCC[C@@H]1NC(=O)[C@H](Cc2c[nH]c3c(C)cccc23)NC(=O)[C@H]([C@@H](C)O)NC(=O)[C@H](CC(N)=O)NC(=O)[C@@H](NC(C)=O)C(C)(C)SSC(C)(C)[C@@H](C(=O)N[C@@H](Cc2ccc(OCCN)cc2)C(=O)N[C@@H](Cc2ccc3ccccc3c2)C(=O)NC2(C(=O)N[C@@H](CCC(=O)O)C(=O)N[C@@H](CC(N)=O)C(=O)N[C@@H](Cc3cccnc3)C(=O)N(C)CC(N)=O)CCOCC2)NC1=O`, “plasma protein binding” read 52.6 ± 0.6% (equilibrium dialysis; human, plasma; 0.1 µM).
`CN1Cc2cc(Cl)ccc2-n2c(nnc2C2CCN(c3cccc([18F])n3)CC2)C1`: “total volume of distribution” 1.11 ± 0.29 mL/cm3 (PET two-tissue compartment model; rhesus monkey, hippocampus; intravenous, dose not given, 90 min scan, baseline scan).
With `N=C(N)NCCC[C@H](NC(=O)[C@H](CCCNC(=N)N)NC(=O)[C@H](CCCNC(=N)N)NC(=O)[C@H](CCC(N)=O)NC(=O)[C@H](CCCNC(=N)N)NC(=O)[C@H](CCCNC(=N)N)NC(=O)[C@H](CCCCN)NC(=O)[C@H](CCCCN)NC(=O)[C@H](CCCNC(=N)N)NC(=O)CNC(=O)[C@H](Cc1ccc(O)cc1)NC(=O)[C@H](Cc1ccccc1)NC(=O)[C@H](Cc1ccccc1)NC(=O)[C@H](Cc1ccccc1)NC(=O)Cc1ccc2ccccc2c1)C(=O)O` the health score was 5 (C57BL/6 mice; intraperitoneal, 5 mg/kg, 12 h; direction not given).
With `CC[C@H](C)[C@H](NC(=O)[C@H](CCCCN)NC(=O)CNC(=O)[C@H](CC(C)C)NC(=O)[C@H](Cc1ccccc1)NC(=O)[C@H](CCCCN)NC(=O)[C@H](CO)NC(=O)[C@H](Cc1ccccc1)NC(=O)[C@H](Cc1c[nH]c2ccccc12)NC(=O)[C@H](CCC(N)=O)NC(=O)[C@@H](NC(=O)[C@H](Cc1ccccc1)NC(=O)CCCCCNC(=O)CN1CCN(CC(=O)O)CCN(CC(=O)O)CCN(CC(=O)O)CC1)C(C)C)C(=O)N[C@@H](CCC(=O)O)C(=O)N1CCC[C@H]1C(=O)N[C@@H](CC(=O)O)C(=O)N[C@H](C(=O)N[C@@H](CO)C(=O)N[C@@H](CCC(N)=O)C(=O)N[C@H](C(=O)N[C@@H](CCC(N)=O)C(=O)N[C@@H](CC(=O)O)C(=O)N1CCC[C@H]1C(=O)N[C@@H](CC(N)=O)C(=O)N[C@@H](CC(=O)O)C(=O)N[C@@H](CCC(N)=O)C(=O)N[C@@H](Cc1ccc(O)cc1)C(=O)N[C@@H](CCC(=O)O)C(=O)N1CCC[C@H]1C(=O)N[C@@H](Cc1ccccc1)C(=O)O)C(C)C)C(C)C` [copper-64 labelled] the tissue uptake was 2.92 ± 0.6 %ID/g (C57BL/6 mice, male, tumour-free, spleen; 1 h).
Under “mean corpuscular haemoglobin”, `O=C1NC2(CC2)COc2ncc(F)cc2[C@H]2COCCN2c2ccn3ncc1c3n2` is recorded as 18.4 ± 0.7 pg (Sprague-Dawley rat, female, blood; oral, 10 mg/kg/day, 4 weeks, end of recovery, subacute toxicity).
For `CCN1CC2(COC)C(O)CC(OC)C34C5CC6(O)C(OC)C(O)C(O)(C5C6OC(=O)c5ccccc5)C(C(OC)C23)C14` (centres unmarked), the Tmax was 0.75 h (Sprague-Dawley rat, plasma; oral, dose not given, in PCW extract).
